Published values collected from several papers.
Each numbered part is a random draw from the data of one study; scales do not carry over between parts. “And” joins repeats or separate records; there may be more than shown.
Chain of UniProt Q9UKT9 (whole entry, looked up): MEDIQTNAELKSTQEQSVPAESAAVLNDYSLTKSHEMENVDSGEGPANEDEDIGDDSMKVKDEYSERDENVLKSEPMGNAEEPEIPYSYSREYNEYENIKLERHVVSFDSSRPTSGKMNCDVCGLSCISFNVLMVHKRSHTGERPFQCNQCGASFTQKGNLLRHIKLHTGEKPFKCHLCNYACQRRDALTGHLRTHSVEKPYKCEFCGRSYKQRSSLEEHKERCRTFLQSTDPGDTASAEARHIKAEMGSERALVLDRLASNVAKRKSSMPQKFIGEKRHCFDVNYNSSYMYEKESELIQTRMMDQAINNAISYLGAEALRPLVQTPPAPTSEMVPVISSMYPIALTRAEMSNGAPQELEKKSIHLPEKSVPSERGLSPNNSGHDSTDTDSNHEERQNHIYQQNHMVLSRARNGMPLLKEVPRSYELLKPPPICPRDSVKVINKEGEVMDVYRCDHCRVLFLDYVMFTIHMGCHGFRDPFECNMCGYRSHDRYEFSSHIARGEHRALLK
Chain of UniProt P48729 (whole entry, looked up): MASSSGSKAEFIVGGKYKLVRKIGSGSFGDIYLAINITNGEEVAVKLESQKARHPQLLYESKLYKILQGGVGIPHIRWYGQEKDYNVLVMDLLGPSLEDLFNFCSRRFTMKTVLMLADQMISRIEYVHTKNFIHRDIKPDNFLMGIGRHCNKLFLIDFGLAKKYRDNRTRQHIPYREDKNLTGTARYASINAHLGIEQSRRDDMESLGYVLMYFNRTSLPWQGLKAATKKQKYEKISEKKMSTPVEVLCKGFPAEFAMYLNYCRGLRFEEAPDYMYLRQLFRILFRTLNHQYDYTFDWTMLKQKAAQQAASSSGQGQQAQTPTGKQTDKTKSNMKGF
Chain of UniProt Q13422 (whole entry, looked up): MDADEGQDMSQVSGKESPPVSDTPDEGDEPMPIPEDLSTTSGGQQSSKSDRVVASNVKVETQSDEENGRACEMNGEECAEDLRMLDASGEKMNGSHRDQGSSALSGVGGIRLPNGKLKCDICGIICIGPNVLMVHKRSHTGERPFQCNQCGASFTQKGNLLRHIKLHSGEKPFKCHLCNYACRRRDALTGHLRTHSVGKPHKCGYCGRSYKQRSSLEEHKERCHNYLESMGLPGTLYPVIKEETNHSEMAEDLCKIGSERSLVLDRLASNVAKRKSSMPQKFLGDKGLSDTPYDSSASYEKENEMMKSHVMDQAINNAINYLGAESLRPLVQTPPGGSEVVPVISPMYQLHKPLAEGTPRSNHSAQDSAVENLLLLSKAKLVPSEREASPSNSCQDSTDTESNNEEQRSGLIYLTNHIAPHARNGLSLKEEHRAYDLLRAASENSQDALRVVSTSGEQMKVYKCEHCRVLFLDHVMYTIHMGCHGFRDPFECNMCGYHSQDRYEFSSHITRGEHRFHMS

Set 1 — action: degrader; technique: HiBiT; cells: HEK293; quantity: remaining protein
Structure (SMILES): Cn1cc(-c2cccc(CN3CCC4(CC3)COc3c4ccc4c3CN([C@H]3CCC(=O)NC3=O)C4=O)c2)cn1
DNA-binding protein Ikaros (Homo sapiens, UniProt Q13422); 1111.11 nM: 92.5% and 94.2%
CSNK1A1 (Homo sapiens, UniProt P48729); 1.524 nM: 106% and 100%
Zinc finger protein Aiolos (Homo sapiens, UniProt Q9UKT9); 10000 nM: 83.9% and 88.3%

Other studies, line by line
Cc1c(NC(=O)c2cccn(-c3ccc(F)cc3)c2=O)ccc(Oc2ccnc(NC(=O)C3CC3)c2)c1C  viability (L929; necroptosis protection, CCK-8; 10 µM, added: TNF-α-induced): 81.1%
C#CCN1C(=O)C(O)(C(=O)O)Oc2cc(F)ccc21 (stereo not drawn)  inhibition (Echinochloa crus-galli; fresh weight; 150 g ai/ha, post-emergence treatment): 44.2% and 47.5% and 47.7%
N=C(N)NCCCCCCN1CCC23c4c5ccc(O)c4OC2c2nc4ccccc4cc2CC3(O)C1C5 (stereo not drawn)  seizure score (modified Racine scale; C57BL/6J mice, male; intracerebroventricular, 100 nmol, 20 min; direction not given): 0

Some of these lines once more (set 1):
DNA-binding protein Ikaros (Homo sapiens, UniProt Q13422); 1111.11 nM: 92.5% and 94.2%
